Assay results gathered from unrelated publications.
Numbered parts are unrelated; each lists some results of a single study.

Study 1
Target: RNA binding protein fox-1 homolog 2, RRM domain, GST-SBP tag (RBFOX2, Homo sapiens, UniProt O43251-10, residues 100-194)
Method: RNA Bind-n-Seq
Form: RNA
Medium: in vitro
Concentration: 365 nM
Notes: natural RNA segment, single round, ends assumed
Baseline: no-protein control
Direction: higher = stronger binding
Shared flanks, not repeated: GGGAGUUCUACAGUCCGACGAUC … UGGAAUUCUCGGGUGCCAA
Target sequence (chain): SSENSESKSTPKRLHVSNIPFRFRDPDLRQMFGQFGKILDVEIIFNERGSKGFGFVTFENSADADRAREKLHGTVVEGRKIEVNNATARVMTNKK
Oligonucleotide	RBNS enrichment (R)
CCAGGCUCUAAAUAAUAGCCUCAGGUCAUCAGGGGGACAGACUGAGUGUCUGUGAUCACUAACAGGGAGUGGGCCUUGAGUCCACUCCAGAACUGUGGUGGGAGACCAAU	0.383
CAAAUAGCUGAGCCAAAAGGCUGAUCAGAAUUCACUUUUUGGAAUGUGGCAGUUAAACACUACCUUGAUCAUUCUCUCCUCUUUCCUCGAGGAACUCCUGGAGGGUUUGA	0.25
UCUUGAGCUUGAAUUCACUUCUCUGUCUGUUUCCGGAGCUGGUGAAAUAAAUGUGAUUUUUGUCCGAUCCUUCUGGUUUUCAUGAAGAUUAGCUGCCAUGUUUUAUUCUU	0.586
GUCUUUAACCACUUCUGAAUCUCAUAUGGCCUGUUGCUCUUGGUCUUGCUAGACUCCCGUUUGUUCUAAGAGUCAGGCUUAUGUAUAGCAGCUUCUAGCUGGUUCUCUAU	0.651
UUAAGUUGACCAUUCUUUUUGUUUUUCUAAGACACAGAAAUGUAUUUAAUAAAACCUUCAAGAGAGAGUAAUGGACGGAGUGCAUUCUCCUUGAAAACUGUUCAGAGUUU	0.327
AAAAAAGAUGAUUAAGAAGGAUGCUCCUACAACUGUAUCCUGACAGUUAAGUCACAGCUUAAUGUGUAGAUAUGAGCUGUUUACAGUGGUGACUAUAUAUAAUUGGGGAG	0.57
AAUGUAUAGUAUUUUAGAACAACAACAACAAAACUCAAUAAACAGUUGAUCUUGUGUGUUUGACAGUCCUUUGCCUUGCAUCCACCCUCAUGUUCACACAGCUGAUAGAC	0.511
UUUCUCCAGGUGUGCAGAUGGCAUGUUAGUGUGGGCACGCUGUUAAGUGGGUAUCCCACCUCCAGCCCACAGUGCUCAGUUGUACUUUUUAUUAUUAAACUAUAAUUAUC	0.771
CUGCCCCCAGCUUUGCUUCUCACCAGCUCAUUAGGGCUCCCAGGUUAAAGUCCUUCAGUAUUUAUGGCCACCCCCACUCCAUGUGAGUCCACUUGGCUCUGUCCUCCCCA	0.692
UAAGGUGGGUACUCUGAGCAGCCUGCCCUGCCUCUCGUGCUUUGAAAUUCUUUUGGUAGAAAUCCCUGAAGAGGUGCACCCAUCACUCAGUGCCCAGGGUCCUUUUCUGG	0.586

Study 2
Target: Sal-like protein 4, full length isoform A (SALL4, Homo sapiens, UniProt Q9UJQ4, residues 1-1053)
Chain of UniProt Q9UJQ4 (whole entry, looked up): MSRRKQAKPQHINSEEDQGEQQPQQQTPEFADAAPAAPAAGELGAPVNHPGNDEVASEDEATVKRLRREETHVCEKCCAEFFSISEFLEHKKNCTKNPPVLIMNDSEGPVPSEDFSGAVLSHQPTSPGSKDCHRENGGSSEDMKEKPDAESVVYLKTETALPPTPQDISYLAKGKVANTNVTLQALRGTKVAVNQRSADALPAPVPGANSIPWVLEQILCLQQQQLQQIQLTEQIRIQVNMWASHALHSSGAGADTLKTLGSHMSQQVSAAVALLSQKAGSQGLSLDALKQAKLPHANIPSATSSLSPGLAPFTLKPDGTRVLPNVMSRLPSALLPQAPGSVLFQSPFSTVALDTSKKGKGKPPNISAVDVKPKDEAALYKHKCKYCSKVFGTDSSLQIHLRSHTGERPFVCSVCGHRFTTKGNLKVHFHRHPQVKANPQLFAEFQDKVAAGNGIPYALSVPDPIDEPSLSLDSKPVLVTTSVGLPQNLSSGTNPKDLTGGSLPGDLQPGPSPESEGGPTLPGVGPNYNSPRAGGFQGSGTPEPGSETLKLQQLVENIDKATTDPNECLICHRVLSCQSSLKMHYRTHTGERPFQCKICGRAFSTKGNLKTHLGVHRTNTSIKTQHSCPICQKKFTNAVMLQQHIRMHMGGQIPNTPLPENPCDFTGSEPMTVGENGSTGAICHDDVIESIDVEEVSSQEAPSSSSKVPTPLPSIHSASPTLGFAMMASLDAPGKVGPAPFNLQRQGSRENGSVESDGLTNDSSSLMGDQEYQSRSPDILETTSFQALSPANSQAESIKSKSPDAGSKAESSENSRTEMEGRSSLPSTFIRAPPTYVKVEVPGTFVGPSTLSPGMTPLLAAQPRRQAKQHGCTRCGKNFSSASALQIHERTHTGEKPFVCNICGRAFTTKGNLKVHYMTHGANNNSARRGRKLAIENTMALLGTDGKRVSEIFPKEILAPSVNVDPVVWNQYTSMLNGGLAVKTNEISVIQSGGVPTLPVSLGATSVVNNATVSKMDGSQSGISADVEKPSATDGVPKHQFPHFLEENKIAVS
Method: universal PBM
Form: double-stranded DNA, one strand shown
Medium: in vitro
Concentration: 600 nM
Notes: 8-mer, flanks averaged, mean of replicates
Direction: higher = stronger binding
Oligonucleotide	E-score
ACATGGCA	0.00295
AAGGACTT	-0.114
AATGGTGA	0.0307
GGAGACGA	-0.0556
CAGAAGTC	-0.0951
AGAATCTA	0.131
AGACTGGC	-0.235
AAGGGCCA	-0.172
ATTATCAA	0.347
GACAAGTC	-0.106
ACTACCGC	0.00894
ACACAGTG	-0.0483
ACGGTAGA	-0.0745

Study 3
Target: Ras GTPase-activating protein-binding protein 1, C-terminal RGG region (G3BP1, Homo sapiens, UniProt Q13283)
Chain of UniProt Q13283 (whole entry, looked up): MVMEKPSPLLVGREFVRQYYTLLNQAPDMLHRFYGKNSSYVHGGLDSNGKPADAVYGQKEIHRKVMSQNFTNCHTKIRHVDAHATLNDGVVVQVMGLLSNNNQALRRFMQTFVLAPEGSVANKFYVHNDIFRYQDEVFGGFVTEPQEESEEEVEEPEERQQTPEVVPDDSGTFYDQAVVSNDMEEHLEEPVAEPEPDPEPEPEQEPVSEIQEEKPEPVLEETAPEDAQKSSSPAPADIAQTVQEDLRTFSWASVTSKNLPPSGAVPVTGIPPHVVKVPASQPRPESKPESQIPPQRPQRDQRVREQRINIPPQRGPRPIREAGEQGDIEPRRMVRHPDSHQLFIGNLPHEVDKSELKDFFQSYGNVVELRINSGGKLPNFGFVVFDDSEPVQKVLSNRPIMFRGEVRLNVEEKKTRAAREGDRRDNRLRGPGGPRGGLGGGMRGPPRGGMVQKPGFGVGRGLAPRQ
Method: RNA Bind-n-Seq
Form: RNA
Medium: in vitro
Concentration: 1 µM
Notes: whole 134-nt RNA, ends assumed
Added: 150 mM KCl
Baseline: input library
Direction: higher = stronger binding
Shared flanks, not repeated: GGGAGUUCUACAGUCCGACGAUC … UGGAAUUCUCGGGUGUCAAGG
Oligonucleotide	log2 enrichment
CCUGUGCUACACAUCGUAUGUACCGAAUCGGCCCCCCGGGGCCCCCCGGGGCCCCCCGGGAAAGUAUUAUGUUACGCCGUUCGGAUCUGC	-2.34
CACAGACAACACGCACCCACACAAACACAGAGGGAAGGGGUUGGGAUGGGGACAGGGUGCACAGCAGGGCGGGGUAGGACCCCAGCCCCU	-0.305
GCCACUGUUCACCAGUCCUACCCACACCAUGCCACACAGCUCCAUGCCCACCAGCCGCAGCCGGCUACCACGCCUACUGGAAGCCAGCCG	-0.409
GUCCUGUGCUACACAUCGUAUGUACCGAAUCGGCCCCCCGGCCCCCCGGCCCCCCGGGGAAAGUAUUAUGUUACGCCGUUCGGAUCUGCA	-1.29
GUCCUGUGCUACACAUCGUAUGUACCGAAUCGGGAAAGGGUUUUUUUGGGUUUUUGGGAAAGUAUUAUGUUACGCCGUUCGGAUCUGCAC	-0.421
CCUCAAGUCCUGUGCUACACAUCGUAUGUACCGAAUCGGGGUGGUGGUGGGGAAAGUAUUAUGUUACGCCGUUCGGAUCUGCACUUCCAG	-0.213
UCCUCAAGUCCUGUGCUACACAUCGUAUGUACCGAAUCGGGUGGGGUGGUGGAAAGUAUUAUGUUACGCCGUUCGGAUCUGCACUUCCAG	0.0939
CCUGUGCUACACAUCGUAUGUACCGAAUCGGGAAAAAGGGUUUUUUUGGGAAAAAAAGGGAAAGUAUUAUGUUACGCCGUUCGGAUCUGC	-2
UUUCACUUCCAGCCAGCUGUGAAGAAGGUGAGCUUGCCUUCCAUCUUCCCCCCUAUCCGCCGCGUAUCUCCGUCGUCUGCAAGCGCGUGA	-0.258
UGGCCCUGGUGGCAUGCGGGGAGGAAGAGGUGGACUCAUGGAUCGUGGUGGUCCCGGUGGAAUGUUCAGAGGUGGCCGUGGUGGAGACAG	1.7

Mixed results
Molecule	organism	assay	test system	setting	how to read	measurement	result
PPVIIKYIIINRF	Saccharomyces cerevisiae	peptide binding, yeast competitive growth sequencing	peptide, cyclin F-Cln2 fusion	library 2	direction not given	enrichment score	0.056

Repeated from above (study 3):
Oligonucleotide	log2 enrichment
CCUGUGCUACACAUCGUAUGUACCGAAUCGGCCCCCCGGGGCCCCCCGGGGCCCCCCGGGAAAGUAUUAUGUUACGCCGUUCGGAUCUGC	-2.34
CACAGACAACACGCACCCACACAAACACAGAGGGAAGGGGUUGGGAUGGGGACAGGGUGCACAGCAGGGCGGGGUAGGACCCCAGCCCCU	-0.305
